Experimental data gathered from unrelated publications.
Parts stem from different laboratories: compare values within a part only.
Sequence of UniProt P21452 (whole entry, looked up): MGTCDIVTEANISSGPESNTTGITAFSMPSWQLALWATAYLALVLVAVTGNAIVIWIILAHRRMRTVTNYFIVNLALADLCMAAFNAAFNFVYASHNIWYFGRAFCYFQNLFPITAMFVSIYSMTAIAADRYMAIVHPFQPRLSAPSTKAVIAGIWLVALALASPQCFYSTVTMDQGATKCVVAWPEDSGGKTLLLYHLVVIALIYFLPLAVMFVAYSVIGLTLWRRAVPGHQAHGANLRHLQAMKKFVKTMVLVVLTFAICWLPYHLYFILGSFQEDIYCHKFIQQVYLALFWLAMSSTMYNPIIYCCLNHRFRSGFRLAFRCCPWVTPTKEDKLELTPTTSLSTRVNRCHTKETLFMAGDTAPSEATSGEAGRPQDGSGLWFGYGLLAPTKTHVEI
Sequence of UniProt Q8IZF4 (whole entry, looked up): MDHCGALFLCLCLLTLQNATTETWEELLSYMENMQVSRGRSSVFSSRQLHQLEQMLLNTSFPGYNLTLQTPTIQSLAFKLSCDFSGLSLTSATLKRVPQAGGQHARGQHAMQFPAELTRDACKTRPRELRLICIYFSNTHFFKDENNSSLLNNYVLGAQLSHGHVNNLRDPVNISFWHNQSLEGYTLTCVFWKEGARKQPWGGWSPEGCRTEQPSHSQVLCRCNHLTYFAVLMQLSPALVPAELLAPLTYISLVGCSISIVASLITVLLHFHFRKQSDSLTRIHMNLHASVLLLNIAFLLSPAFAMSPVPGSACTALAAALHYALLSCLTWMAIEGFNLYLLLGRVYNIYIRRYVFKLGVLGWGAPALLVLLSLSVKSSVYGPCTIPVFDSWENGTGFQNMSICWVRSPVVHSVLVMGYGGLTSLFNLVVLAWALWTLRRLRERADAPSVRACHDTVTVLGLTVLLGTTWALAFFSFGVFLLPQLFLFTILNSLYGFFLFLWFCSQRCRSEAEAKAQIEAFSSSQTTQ
Sequence of UniProt P25105 (whole entry, looked up): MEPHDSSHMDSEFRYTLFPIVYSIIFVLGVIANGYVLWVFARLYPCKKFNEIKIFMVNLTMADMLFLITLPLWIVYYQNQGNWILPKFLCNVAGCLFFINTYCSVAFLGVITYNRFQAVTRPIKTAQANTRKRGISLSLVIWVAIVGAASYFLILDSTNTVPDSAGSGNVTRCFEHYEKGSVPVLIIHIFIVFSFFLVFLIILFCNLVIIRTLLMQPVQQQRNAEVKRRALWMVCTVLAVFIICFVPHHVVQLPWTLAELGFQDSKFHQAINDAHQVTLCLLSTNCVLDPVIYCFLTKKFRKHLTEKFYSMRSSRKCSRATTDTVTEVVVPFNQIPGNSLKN
Sequence of UniProt Q9NQ84 (whole entry, looked up): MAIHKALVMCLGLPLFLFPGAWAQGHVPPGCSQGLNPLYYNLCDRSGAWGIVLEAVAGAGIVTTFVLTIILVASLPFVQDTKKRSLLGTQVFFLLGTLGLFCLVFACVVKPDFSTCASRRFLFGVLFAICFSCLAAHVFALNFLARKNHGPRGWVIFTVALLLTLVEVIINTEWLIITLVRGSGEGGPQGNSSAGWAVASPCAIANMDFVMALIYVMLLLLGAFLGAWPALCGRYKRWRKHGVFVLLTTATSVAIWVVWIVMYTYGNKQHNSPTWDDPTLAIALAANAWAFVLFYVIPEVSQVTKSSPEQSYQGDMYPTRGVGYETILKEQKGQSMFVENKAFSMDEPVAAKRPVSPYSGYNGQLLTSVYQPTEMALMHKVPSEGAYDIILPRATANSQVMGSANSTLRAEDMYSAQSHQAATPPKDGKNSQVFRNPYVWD
Sequence of UniProt O00270 (whole entry, looked up): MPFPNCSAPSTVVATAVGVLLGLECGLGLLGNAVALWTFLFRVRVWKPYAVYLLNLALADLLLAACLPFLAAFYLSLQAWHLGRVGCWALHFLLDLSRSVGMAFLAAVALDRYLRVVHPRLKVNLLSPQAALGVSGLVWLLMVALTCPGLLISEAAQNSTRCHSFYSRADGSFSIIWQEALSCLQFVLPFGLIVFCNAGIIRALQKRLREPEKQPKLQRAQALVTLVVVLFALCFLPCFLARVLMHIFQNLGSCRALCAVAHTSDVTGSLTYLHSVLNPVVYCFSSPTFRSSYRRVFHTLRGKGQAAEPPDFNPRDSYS
Sequence of UniProt P25090 (whole entry, looked up): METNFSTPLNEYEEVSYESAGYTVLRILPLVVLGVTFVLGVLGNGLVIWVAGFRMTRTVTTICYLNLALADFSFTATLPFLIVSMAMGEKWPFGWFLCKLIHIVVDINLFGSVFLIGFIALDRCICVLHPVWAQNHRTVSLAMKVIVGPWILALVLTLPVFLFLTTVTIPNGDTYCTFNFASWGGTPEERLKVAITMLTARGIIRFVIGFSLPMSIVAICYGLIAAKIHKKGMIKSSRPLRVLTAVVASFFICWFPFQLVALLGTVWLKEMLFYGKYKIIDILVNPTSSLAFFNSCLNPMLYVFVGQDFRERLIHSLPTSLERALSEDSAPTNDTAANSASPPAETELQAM
Sequence of UniProt Q8TDV5 (whole entry, looked up): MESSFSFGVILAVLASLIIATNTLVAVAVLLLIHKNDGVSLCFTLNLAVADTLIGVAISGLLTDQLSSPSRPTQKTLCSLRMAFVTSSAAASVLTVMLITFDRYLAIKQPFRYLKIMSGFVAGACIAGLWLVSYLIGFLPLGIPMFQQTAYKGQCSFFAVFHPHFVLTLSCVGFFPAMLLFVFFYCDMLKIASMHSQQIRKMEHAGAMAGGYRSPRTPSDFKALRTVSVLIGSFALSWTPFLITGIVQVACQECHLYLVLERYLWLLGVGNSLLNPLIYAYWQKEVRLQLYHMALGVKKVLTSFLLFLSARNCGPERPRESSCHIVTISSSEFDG
Sequence of UniProt P48546 (whole entry, looked up): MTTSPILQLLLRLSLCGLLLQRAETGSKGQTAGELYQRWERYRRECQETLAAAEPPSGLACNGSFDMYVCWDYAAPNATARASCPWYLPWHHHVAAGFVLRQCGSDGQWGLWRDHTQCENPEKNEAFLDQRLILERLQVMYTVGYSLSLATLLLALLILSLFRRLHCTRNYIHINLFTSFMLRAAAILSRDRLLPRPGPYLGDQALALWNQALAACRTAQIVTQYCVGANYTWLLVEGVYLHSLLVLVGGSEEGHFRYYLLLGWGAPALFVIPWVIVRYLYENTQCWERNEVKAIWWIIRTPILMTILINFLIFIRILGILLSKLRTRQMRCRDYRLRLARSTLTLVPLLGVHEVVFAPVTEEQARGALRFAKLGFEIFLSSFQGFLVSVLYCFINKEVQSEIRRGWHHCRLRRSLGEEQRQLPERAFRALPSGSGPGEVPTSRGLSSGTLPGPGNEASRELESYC
Sequence of UniProt P08173 (whole entry, looked up): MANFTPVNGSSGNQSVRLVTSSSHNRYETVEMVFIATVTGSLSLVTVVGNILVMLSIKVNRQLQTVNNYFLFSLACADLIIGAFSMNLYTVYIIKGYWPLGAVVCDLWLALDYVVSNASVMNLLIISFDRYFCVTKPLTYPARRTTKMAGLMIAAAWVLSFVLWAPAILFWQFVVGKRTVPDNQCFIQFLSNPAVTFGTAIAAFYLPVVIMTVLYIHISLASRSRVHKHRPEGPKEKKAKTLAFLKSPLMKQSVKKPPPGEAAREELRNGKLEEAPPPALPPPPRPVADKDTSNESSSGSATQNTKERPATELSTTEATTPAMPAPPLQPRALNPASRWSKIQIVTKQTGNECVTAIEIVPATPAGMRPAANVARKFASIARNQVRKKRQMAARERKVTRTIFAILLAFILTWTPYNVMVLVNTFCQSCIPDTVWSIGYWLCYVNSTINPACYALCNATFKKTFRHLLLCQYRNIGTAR
Sequence of UniProt Q96P66 (whole entry, looked up): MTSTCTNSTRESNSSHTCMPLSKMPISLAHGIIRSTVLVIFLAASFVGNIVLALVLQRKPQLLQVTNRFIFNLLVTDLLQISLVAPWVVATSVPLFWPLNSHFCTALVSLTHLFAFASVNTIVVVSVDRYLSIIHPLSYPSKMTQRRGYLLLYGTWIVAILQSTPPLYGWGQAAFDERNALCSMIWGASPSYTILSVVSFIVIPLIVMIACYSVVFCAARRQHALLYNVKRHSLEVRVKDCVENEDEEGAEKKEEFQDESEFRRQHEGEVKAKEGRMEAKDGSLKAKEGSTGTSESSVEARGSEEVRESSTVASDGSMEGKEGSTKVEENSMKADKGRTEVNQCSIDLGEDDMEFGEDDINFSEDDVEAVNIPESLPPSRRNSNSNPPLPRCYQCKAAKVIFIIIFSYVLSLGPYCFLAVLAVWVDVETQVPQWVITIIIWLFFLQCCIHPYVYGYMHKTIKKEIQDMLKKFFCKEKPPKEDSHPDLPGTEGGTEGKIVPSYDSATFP

Set 1
Cell line: A-375
Tested at: 100 µM
Time: 18 h
| SMILES | viability |
| --- | --- |
| C=CC(N)CCC(=O)O (stereo not drawn) | 92.7% |
| CCCCCCCCCCCCCCCCOP(=O)([O-])OCC[N+](C)(C)C | 10.8% |
| CCN(CC)CCNC(=O)c1cc(Cl)c(N)cc1OC | 89.7% |
| Cc1c(C(=O)Nc2ccc(N3C[C@@H](C)O[C@@H](C)C3)nc2)cccc1-c1ccc(OC(F)(F)F)cc1 | 21.6% |
| O=C1C(CC[S+]([O-])c2ccccc2)C(=O)N(c2ccccc2)N1c1ccccc1 (stereo not drawn) | 89.1% |
| O=C(C[S+]([O-])Cc1ccco1)NC/C=C\COc1cc(CN2CCCCC2)ccn1 (stereo not drawn) | 61.9% |
| CCN(CC)CCNC(=O)c1ccc(NC(C)=O)cc1 | 88% |
| O=C(O)CN(CCN(CC(=O)O)CC(=O)O)CC(=O)O | 85.4% |
| O=C(/C=C/C=C/c1ccc2c(c1)OCO2)N1CCCCC1 | 81.9% |
| C#CCN[C@@H]1CCc2ccccc21 | 92.2% |

Set 2
SMILES: N=C(N)NC(=O)c1cnn(-c2cccc3ncccc23)c1C1CC1
Observed: β-arrestin recruitment
Action: agonist
Method: PRESTO-Tango
Tested at: 10 µM
Relative to: untreated
| target | fold over basal |
| --- | --- |
| GPR119 (Homo sapiens, UniProt Q8TDV5) | 0.74 |
| GPR101 (Homo sapiens, UniProt Q96P66) | 1.11 |
| GRM2 (Homo sapiens, UniProt Q14416) | 1.45 fold |
| FPR2 (Homo sapiens, UniProt P25090) | 0.86 fold |
| Adhesion G-protein coupled receptor G5 (ADGRG5, Homo sapiens, UniProt Q8IZF4) | 0.87 |
| HTR2A (Homo sapiens, UniProt P28223) | 0.79 |
| GPRC5C (Homo sapiens, UniProt Q9NQ84) | 1.75 |
| Adhesion G protein-coupled receptor F5 (ADGRF5, Homo sapiens, UniProt Q8IZF2) | 1.29 |
| GIPR (Homo sapiens, UniProt P48546) | 0.89 fold |
| CHRM4 (Homo sapiens, UniProt P08173) | 1 |
| PTAFR (Homo sapiens, UniProt P25105) | 0.75 |
| TACR2 (Homo sapiens, UniProt P21452) | 0.84 fold |
| 12-(S)-hydroxy-5,8,10,14-eicosatetraenoic acid receptor (GPR31, Homo sapiens, UniProt O00270) | 1.05 |

Set 3
Target: Testis-specific serine/threonine-protein kinase 2 (TSSK2, Homo sapiens, UniProt Q96PF2)
Observed: enzyme activity
Action: inhibitor
Tested at: 0.5 µM
Relative to: control
Residues (Q96PF2 1-358): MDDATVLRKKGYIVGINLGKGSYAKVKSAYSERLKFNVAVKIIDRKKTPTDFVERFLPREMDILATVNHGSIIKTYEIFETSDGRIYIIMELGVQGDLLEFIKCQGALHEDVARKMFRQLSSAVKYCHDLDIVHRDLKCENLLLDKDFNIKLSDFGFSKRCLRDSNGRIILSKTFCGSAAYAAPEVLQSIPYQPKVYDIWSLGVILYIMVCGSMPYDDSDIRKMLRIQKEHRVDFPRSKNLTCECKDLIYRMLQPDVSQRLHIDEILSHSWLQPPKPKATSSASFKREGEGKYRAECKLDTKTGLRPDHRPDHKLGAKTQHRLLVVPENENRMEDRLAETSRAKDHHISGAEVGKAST
| Compound | remaining activity |
| --- | --- |
| CN(C)C[C@H]1CCn2c(c(C3=C(c4cn(C)c5ccccc45)C(=O)NC3=O)c3ccccc32)C1 | 97.1% |
| Nc1cccc(-c2cc3c(Oc4cccc(O)c4)ncnc3[nH]2)c1 | 95.6% |
| Ic1cccc(CSc2nnc(-c3ccncc3)o2)c1 | 110% |
| CCN(CC)CCNC(=O)c1c(C)[nH]c(/C=C2\C(=O)Nc3ccc(F)cc32)c1C | 72.9% |
| O=C(Nc1cccc(Nc2nccc(Nc3cccc(C(F)(F)F)c3)n2)c1)C1CC1 | 97.1% |
| COc1cc2c(cc1OC)-c1[nH]nc(Nc3cccc(F)c3)c1C2 | 75.1% |
| N#Cc1c(NC(=O)c2cccc3ccccc23)sc2c1CCCC2 | 104% |
| O=C1c2ccccc2-c2n[nH]c3cccc1c23 | 98.9% |
| COc1cc2ncnc(Nc3ccc(O)c(Br)c3)c2cc1OC | 98.7% |
| c1ccc(-c2cnc(Nc3ccc(OCCN4CCCC4)cc3)s2)cc1 | 89% |
| Cc1cc2ncc(-c3ccccc3)nc2cc1C | 87.5% |
| CN([C@@H](Cc1ccc(OS(=O)(=O)c2cccc3cnccc23)cc1)C(=O)N1CCN(c2ccccc2)CC1)S(=O)(=O)c1cccc2cnccc12 | 105% |
| Cc1cn(-c2cc(NC(=O)c3ccc(C)c(Nc4nccc(-c5cccnc5)n4)c3)cc(C(F)(F)F)c2)cn1 | 73.5% |
| c1ccc(-c2[nH]ncc2-c2ccnc3ccccc23)nc1 | 83.5% |
| Cc1nc2cc3nc(-c4cccs4)cnc3cc2n1C | 98.2% |
| O=c1cc(-c2cccc3c2Sc2ccccc2S3)oc(N2CCOCC2)c1 | 97.7% |
| CCN(CC)C(=O)c1ccc(Nc2nc(OCC3CCCCC3)c3[nH]cnc3n2)cc1 | 87.4% |
| COc1cc2ncnc(Nc3cccc(Cl)c3)c2cc1OC | 94.8% |
| N#C/C(=C\c1ccc(O)c(O)c1)C(=O)NCc1ccccc1 | 90% |
| O=C1C(Cl)=C(N2C(=O)CCC2=O)C(=O)c2ccccc21 | 103% |
| CCOc1nc(NC(=O)Cc2cc(OC)ccc2OC)cc(N)c1C#N | 91.2% |
| C[C@@H]1CCN(C(=O)CC#N)C[C@@H]1N(C)c1ncnc2[nH]ccc12 | 87.9% |

Set 4
Target: Beta-2 adrenergic receptor (ADRB2, Homo sapiens, UniProt P07550)
Sequence of UniProt P07550 (whole entry, looked up): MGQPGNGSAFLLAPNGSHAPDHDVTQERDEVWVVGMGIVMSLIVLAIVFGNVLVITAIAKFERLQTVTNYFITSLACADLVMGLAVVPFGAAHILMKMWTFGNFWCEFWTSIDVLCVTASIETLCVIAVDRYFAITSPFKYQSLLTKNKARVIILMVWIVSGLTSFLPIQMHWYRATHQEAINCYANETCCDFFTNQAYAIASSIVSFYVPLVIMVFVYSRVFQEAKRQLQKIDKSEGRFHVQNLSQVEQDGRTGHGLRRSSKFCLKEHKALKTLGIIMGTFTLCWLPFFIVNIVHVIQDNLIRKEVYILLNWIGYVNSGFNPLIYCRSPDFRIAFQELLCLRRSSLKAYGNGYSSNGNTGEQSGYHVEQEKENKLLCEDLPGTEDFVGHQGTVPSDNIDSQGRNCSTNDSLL
Observed: binding
Method: radioligand binding
Tested at: 10 µM
| Compound | inhibition [%] |
| --- | --- |
| Cc1nc(C2CCN(C(=O)c3ccc(OC(F)(F)F)cc3N)CC2)c2ncc(N3CCN(C)CC3)cc2n1 | -5.65 |
| Cc1cc(-n2nc(Cc3cc(F)cc(C(F)(F)F)c3)nc2C)ccc1C(N)=O | -1.39 |
| Cc1nc(N2CC[C@@H](O)C2)ncc1-c1cc(C(F)(F)F)cc2[nH]ncc12 | -2.23 |
| CC(=O)c1c(NS(C)(=O)=O)c2cc(-c3ccc(Cl)cc3)c(-c3ccc(Cl)cc3Cl)nc2n(C)c1=O | 5.51 |
| CCOCCn1cc(C(=O)Nc2ccc(-n3nc(-c4cccnc4)cc3C(F)(F)F)cn2)ccc1=O | -1.17 |
| COc1cccc(CNC(=O)c2nc3scc(COCc4ccc(C(=O)O)cc4)c3c(=O)[nH]2)c1 | 25.4 |
| Nc1c(C(=O)NCc2ccc(C(=O)NCCCC3CCCCC3)cc2)cnn1-c1ccccc1 | 6.62 |
| CNC(=O)Nc1ccc2c(c1)[C@]1(CC2)OC(=O)N(CC(=O)N(Cc2ccc(F)cc2)[C@@H](C)C(F)(F)F)C1=O | 24.7 |
| CS(=O)(=O)NCC[C@H](NC(=O)c1cncc2c1cnn2-c1ccc(F)cc1)c1ccnc(S(C)(=O)=O)c1 | -5.93 |

Repeated from above (set 4):
| Compound | inhibition [%] |
| --- | --- |
| Cc1nc(N2CC[C@@H](O)C2)ncc1-c1cc(C(F)(F)F)cc2[nH]ncc12 | -2.23 |
| CC(=O)c1c(NS(C)(=O)=O)c2cc(-c3ccc(Cl)cc3)c(-c3ccc(Cl)cc3Cl)nc2n(C)c1=O | 5.51 |
| CCOCCn1cc(C(=O)Nc2ccc(-n3nc(-c4cccnc4)cc3C(F)(F)F)cn2)ccc1=O | -1.17 |
| COc1cccc(CNC(=O)c2nc3scc(COCc4ccc(C(=O)O)cc4)c3c(=O)[nH]2)c1 | 25.4 |
| Nc1c(C(=O)NCc2ccc(C(=O)NCCCC3CCCCC3)cc2)cnn1-c1ccccc1 | 6.62 |
| CNC(=O)Nc1ccc2c(c1)[C@]1(CC2)OC(=O)N(CC(=O)N(Cc2ccc(F)cc2)[C@@H](C)C(F)(F)F)C1=O | 24.7 |
| CS(=O)(=O)NCC[C@H](NC(=O)c1cncc2c1cnn2-c1ccc(F)cc1)c1ccnc(S(C)(=O)=O)c1 | -5.93 |
